Experimental data of several laboratories.
Protocols differ between the studies behind these lines. Values joined by “and” are separate records of one study, mostly repeats; a detail may differ.

| Compound | target or system | test | test system | conditions | how to read | endpoint | result |
| --- | --- | --- | --- | --- | --- | --- | --- |
| O=S(=O)(N[C@H]1CCO[C@@H](C2c3ccc(F)cc3CCc3cc(F)ccc32)C1)c1ccc(OC(F)(F)F)cc1 | D425 | immunoblot, refers to: CCR2 |  | concentration not given |  | protein level | decreased |
| CCC(=CCc1c(O)cc2c(c1O)C(=O)CC(c1ccc(OC)cc1O)O2)CC (stereo not shown) | HeLa | cell growth or viability, MTT |  | 0.781 µM, 48 h |  | inhibition | 4.28% |
| CCC(CC)n1c(Cc2ccco2)nc2cc(C(=O)N[C@@H](CC(=O)O)c3ccccc3)ccc21 | 3T3 fibroblasts | refers to: α-SMA, Fn1, Col1α2, Timp1 |  | concentration not given, 48 h, with: MCM |  | mRNA level | decreased |
| CCN(CC)CC(=O)Nc1cccc(-n2cc(-c3ccc4ccc(-c5cn(-c6cccc(NC(=O)CN(CC)CC)c6)nn5)cc4c3)nn2)c1 | RCC4 | PCR angiogenesis array, refers to: TGFB1 |  | 5 x IC50, 4 h, normoxia | baseline: untreated | fold regulation | -1.1 fold |
| CNS(=O)(=O)Nc1nccc(Cc2c(C)c3ccc(Oc4ncccc4F)cc3oc2=O)c1F | NCI-H3255 | cell viability |  | 7 days |  | IC50 | > 1000 nM |
| Nc1ncc(-c2ccc([C@H]3[C@@H](F)[C@@H](F)C[C@@H](F)[C@H]3F)cc2)cn1 |  | liver microsome stability | human liver microsomes | 1 µM, without NADPH |  | hepatic clearance | 3.9 mL/min/kg |
| Cn1ncc2cc(-c3cncc(Cl)c3N3CCC4(CCNC4=O)CC3)ccc21 | LS174T | gene expression, microarray, refers to: PCK1 mRNA |  | concentration not given, 4 h | baseline: untreated cells | log2 fold change | 1.63 |
| O=C(NCCOc1ccc(F)cc1)c1ccc(C2CCCCC2)cc1 |  | liver microsome stability | human liver microsomes | 1 µM, without NADPH |  | hepatic clearance | 9.7 mL/min/kg |
| CC(C)C[C@H](NC(=O)[C@@H]1CCCN1C(=O)[C@H](CCCCN)NC(=O)[C@@H](N)CO)C(=O)N1CCC[C@H]1C(=O)N[C@@H](CCC(=O)O)C(=O)N[C@H](C(=O)N[C@H](C(=O)N[C@@H](CC(=O)O)C(=O)N[C@@H](CCC(=O)O)C(=O)N[C@@H](Cc1ccc(O)cc1)C(=O)NCC(=O)NCCOCCOCCOCCOCCOCCOCCOCCOCCOCCOCCOCCOCCOCCOCCOCCOCCOCCOCCOCCOCCOCCOCCOCCOCCC(=O)N[C@@H](CCCCNC(=O)CC[C@H](C(=O)O)N1CCN(CC(=O)O)CCN(CC(=O)O)CC1)C(=O)N1CCN(CCCN(C)c2ccc3nccc(C(=O)NCC(=O)N4CC(F)(F)C[C@H]4C#N)c3c2)CC1)[C@@H](C)O)C(C)C | MRC5 | cell binding, flow cytometry |  | 4 °C |  | Kd | 10 nM |
| CC12CCCC(n3cc(C(=O)N4CCOCC4)nn3)(C1)C1CC(C)(C)C1CC2 (stereo not shown) | HT-29 | cell growth or viability, CCK-8 |  | 10 µM |  | inhibition | < 50% |
| CC(=O)NCCCN(C)CCCNc1cccc2c1C(=O)c1cccc(NCCCN(C)CCCNC(C)=O)c1C2=O | SAS | RNA-Seq, refers to: IGSF10 mRNA |  | 1 µM, 6 h | baseline: untreated cells | log2 fold change | 4.29 |
| [BH3-][P+]1(c2ccccc2)CCCCC1 | HaCaT | Annexin V-FITC/PI flow cytometry |  | IC50, 72 h |  | late apoptotic cells | 1.45% |
| CC12CCCC(NS(=O)(=O)c3ccc(C(F)(F)F)cc3)(C1)C1CC(C)(C)C1CC2 (stereo not shown) | HT-29 | cell growth or viability, CCK-8 |  | 10 µM |  | inhibition | < 50% |
| CCCNc1ncc2c(/C=C/C(=O)N3CCC(OC)CC3)nn(Cc3cccc(C(F)(F)F)c3)c2n1 | OE33 | cell growth or viability, resazurin |  | 5 days |  | EC50 | 3160 nM |
| CCC(=CCc1c(O)cc2c(c1O)C(=O)CC(c1c(O)cccc1OC)O2)CC (stereo not shown) | HeLa | cell growth or viability, MTT |  | 25 µM, 48 h |  | inhibition | 24.8% |
| C#CCCCC(F)/C=C/C(=O)NC1(c2ccc(-c3nc4ccn5c(=O)[nH]nc5c4cc3-c3ccccc3)cc2)CCC1 (stereo not shown) | T47D MK-2206-resistant | cell viability |  | 72 h | baseline: EC50 resistant over wild-type T47D | resistance fold | 1.6 |
| Cc1ncsc1-c1ccc(C(C)NC(=O)C2CC(O)CN2C(=O)C(NC(=O)CCCCCCCCCCN2CCCC(Nc3ncc(Cl)c(Nc4ccccc4S(=O)(=O)C(C)C)n3)C2)C(C)(C)C)cc1 (stereo not shown) | 22Rv1 | RNA-seq, refers to: SFT2D3 mRNA |  | concentration not given | baseline: DMSO | log2 fold change | -1.26 |
| CC(C)Cc1ccc(C(C)C(=O)[Se]CC(=O)Nc2cccc(C(F)(F)F)c2)cc1 (stereo not shown) | NCI60 leukemia subpanel | cell growth |  | 10 µM, 48 h, one-dose |  | mean growth percent | -67.4% |
| CC(=O)N[C@H](C(=O)N[C@@H](CCC(=O)O)C(=O)N[C@@H](C)C(=O)N[C@@H](CC(=O)O)C(=O)COC(=O)c1c(C)cccc1C)C(C)C | THP-1 cells, LPS-primed | pyroptosis, LDH release |  | 25 µM, LPS 1 µg/mL, 4 h, with: nigericin 5 µM, 2 h |  | cell lysis | 94.6% and 99% |

Repeated from above:
| Compound | target or system | test | test system | conditions | how to read | endpoint | result |
| --- | --- | --- | --- | --- | --- | --- | --- |
| CC(C)C[C@H](NC(=O)[C@@H]1CCCN1C(=O)[C@H](CCCCN)NC(=O)[C@@H](N)CO)C(=O)N1CCC[C@H]1C(=O)N[C@@H](CCC(=O)O)C(=O)N[C@H](C(=O)N[C@H](C(=O)N[C@@H](CC(=O)O)C(=O)N[C@@H](CCC(=O)O)C(=O)N[C@@H](Cc1ccc(O)cc1)C(=O)NCC(=O)NCCOCCOCCOCCOCCOCCOCCOCCOCCOCCOCCOCCOCCOCCOCCOCCOCCOCCOCCOCCOCCOCCOCCOCCOCCC(=O)N[C@@H](CCCCNC(=O)CC[C@H](C(=O)O)N1CCN(CC(=O)O)CCN(CC(=O)O)CC1)C(=O)N1CCN(CCCN(C)c2ccc3nccc(C(=O)NCC(=O)N4CC(F)(F)C[C@H]4C#N)c3c2)CC1)[C@@H](C)O)C(C)C | MRC5 | cell binding, flow cytometry |  | 4 °C |  | Kd | 10 nM |
| CNS(=O)(=O)Nc1nccc(Cc2c(C)c3ccc(Oc4ncccc4F)cc3oc2=O)c1F | NCI-H3255 | cell viability |  | 7 days |  | IC50 | > 1000 nM |
| CCC(=CCc1c(O)cc2c(c1O)C(=O)CC(c1c(O)cccc1OC)O2)CC (stereo not shown) | HeLa | cell growth or viability, MTT |  | 25 µM, 48 h |  | inhibition | 24.8% |
